Measured values pooled from the literature.
Parts stem from different laboratories: compare values within a part only.

Study 1
Target: Interferon regulatory factor 5, full length, phosphomimetic (IRF5, Homo sapiens, UniProt Q13568-2, residues 1-514, K96S/S451D/S453D/S456D/S462D)
Technique: protein-binding microarray
Molecule type: double-stranded DNA, one strand shown
Medium: in vitro
Concentration: 250 nM
Setting: 60-bp whole probe
Together with: salmon DNA 0.4 mg/ml
Baseline: random background probes
Direction: higher = stronger binding
Shared flanks, not repeated: GCCTAGCAC … GTCTTGATTCGCTTGACGCTGCTG
Sequence | log fluorescence
CTAGGTTTCGGTATCGGTTAGTGCTAG | 10.6 z-score
GAGGGTTTCGACTTTCGGGACGTGCTA | 7.32 z-score
TTAGGACTGCTCCTCCTTTAGTGCTAG | -0.463 z-score
TCATGTTTGTGTGTGTAACTGTGCTAG | 0.221 z-score
GACGGTTTCCTTTTCCAGACGTGCTAG | 1.02 z-score
TACGGTTTCGGGTTTCGGGACGTGCTA | 8.11 z-score
GTATATACACTTATGACTTTGTGCTAG | 0.483 z-score
TTCGGACTGGACTATCGGTTAGTGCTA | 5.86 z-score
TTAGGTATCCTTCTCCTTTAGTGCTAG | 0.365 z-score
GACGGTTACGACTATCGGGACGTGCTA | 1.11 z-score
CTTAGAATAATTTTTTAGCTTGTGCTA | 0.472 z-score

Study 2
Target: Centromere-binding protein 1, full length, His-tagged (CBF1, Saccharomyces cerevisiae, UniProt P17106, residues 1-351)
Chain of UniProt P17106 (whole entry, looked up): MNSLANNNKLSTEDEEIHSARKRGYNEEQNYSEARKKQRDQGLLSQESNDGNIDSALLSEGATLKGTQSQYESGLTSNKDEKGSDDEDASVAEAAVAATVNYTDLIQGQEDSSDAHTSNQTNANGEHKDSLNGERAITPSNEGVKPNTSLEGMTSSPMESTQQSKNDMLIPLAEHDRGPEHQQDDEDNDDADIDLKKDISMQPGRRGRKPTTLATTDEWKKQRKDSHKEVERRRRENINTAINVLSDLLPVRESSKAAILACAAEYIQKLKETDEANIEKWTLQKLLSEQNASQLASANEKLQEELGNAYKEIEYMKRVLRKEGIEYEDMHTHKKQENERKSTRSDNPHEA
Technique: competition protein-binding microarray
Molecule type: double-stranded DNA, one strand shown
Medium: in vitro
Concentration: 2 µM
Setting: whole 60-bp probe, lowest competitor level
Together with: Pho4 competitor, 0.05 µM
Direction: higher = stronger binding
Shared flanks, not repeated: … GTCTTGATTCGCTTGACGCTGCTG
Sequence | fluorescence intensity [a.u.]
ATATCCAACATTTGGCCCGTGATGGCTTAAGCGACT | 178
CATACCCAACCTTGCGGGGTGGGTGAAGATATTTGT | 70.4
TTCTGACGGAGACAGAACGTGGCCGTGTACACTCTT | 75.2
ACAAATACGAGCTTGCGCGTGTAGGTTAATCAGTTC | 83.8
TGCGCAACAACTTGTGATGTGGGTGTATGTCTAGAA | 79.1
CGTAGGGCAATTTTTAGCGTGATGGATAAGGGCGCA | 86.1
CGGGGTTAAGTTTCCCACGTGTTTTGCTTGCAGCAG | 524
CTAACGAAGGTTTGTCACGCAACTTACAAGCCAAGT | 115
CTCAGTCTCTGGAAAAACGTGCTTTTTAACGGTTAT | 249
TAATAAAAATGTTACCACGTTATCAGGGTTTTCATG | 237
TTGGTGGGGACTCTGCATGTGAAGAAGCTCAGTTCT | 86.7

Study 3
Target: RING finger protein unkempt homolog, zinc fingers 1-6, SBP tag (UNK, Homo sapiens, UniProt Q9C0B0, residues 30-357)
Chain of UniProt Q9C0B0 (30-357, looked up): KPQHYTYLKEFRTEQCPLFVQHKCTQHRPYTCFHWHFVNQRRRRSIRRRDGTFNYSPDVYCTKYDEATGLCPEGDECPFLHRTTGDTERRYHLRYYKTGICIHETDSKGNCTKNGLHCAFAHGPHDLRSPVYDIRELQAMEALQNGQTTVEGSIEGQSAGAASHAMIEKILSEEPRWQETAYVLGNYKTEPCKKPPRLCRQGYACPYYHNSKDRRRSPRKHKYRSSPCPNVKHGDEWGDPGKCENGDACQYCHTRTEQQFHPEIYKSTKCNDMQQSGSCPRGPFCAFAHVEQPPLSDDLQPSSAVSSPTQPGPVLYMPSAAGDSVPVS
Technique: RNA Bind-n-Seq
Molecule type: RNA
Medium: in vitro
Concentration: 100 nM
Setting: RNA with constant flanks, vertebrate orthologous sites, ends assumed
Baseline: input RNA pool
Direction: higher = stronger binding
Shared flanks, not repeated: GGGAGUUCUACAGUCCGACGAUC … CAACAGAGGAUUGAGCAUCA
Sequence | bound/input enrichment
UCACUAGUCCCACUACUCCUGGGUGCGUGACUGCCAUCCACCAGCACUGCAAGGGGUGCAGAGUGUUUUUUUGCUGCCUCAGUCCCCAAUGCCUUCAAGCAGAAGUGGCAGUAGGUUGUU | 0.446 ratio
UAUAAGAACUCUUGCAGUCUUAGAUGUUAUAAAAAUAUAUAUCUGAAUUGUAAGAGUUGUUAGCACAGUUUUUUUUUAAGCUCUUGUUUUGGGUACAAGGCAUUUCUGAAAUUUUGUAAA | 0.247 ratio
GUUGUGACCCUUUUAACAUUCACAAAAAGUUAGCAAAAAAAAAUUUGCAUGUGAUUGACUUAGAUGAUGCCACUUUUCUGAGCGCAAAAUUUGGAAGGCAGCUAGUUCCUGGUUGGAAGC | 0.971 ratio
AUUCAAACCUGUGGUACCCUGGCCUCAUGUUGAAGGAGUAGAAGUGGACUUAGAAUCUAUUAGAAGAAAAAACAAGGCCAAAAAUGAACACGAGCACCAUGCUGGAGGAGAGAACCAGAG | 0.608 ratio
AGUAGUUUUAAGCUUGUUUGCACAGUUCUUUUUUUCCAUUGGAAAUGGAAUUCAUUGCCUUAGGUCUUUUUAAAUACUGUAUUAUCGUUGGGGCUGGCUCUAUGCUUGAAAACCAGUUUA | 1.38 ratio
AGUAGUUUUAAGCUUGUUUGCACAGUUCUUUUUUUCCAUUGGAAAUGGAAUUCAUUGCCUUAGGUCUUUUUAAAUAGUGUAUUAUUAUCGUUGGGGCUGGCUCUAUGCUUGAAACCAGUU | 3.42 ratio
GUGUUGGUGCAGAGUGCUCUGUGCCAGUUGCUCAUCAUCCCUUUUUCAUACCAACAGCCCUAGUUACAGGAAUUUAAUAUUUUUAAAAAUUUACAUCGCUGUAUAUUCAAAGAUUUGUUU | 0.46 ratio

Other studies, line by line
Substance | target | test | test system | conditions | how to read | quantity | result
PhoQ, residues 284 288 289 292 302 303 ALASRC | PhoP, residues 12 14 15 18 19 NYFTV (Escherichia coli, UniProt P23836) | Sort-seq, refers to: YFP reporter | E. coli | PhoQ-PhoP variant library, together with: 10 µM Mg2+ | baseline: high Mg2+ state, higher = stronger signaling | fold induction | 1.75

A few entries again (study 2):
Sequence | fluorescence intensity [a.u.]
TAATAAAAATGTTACCACGTTATCAGGGTTTTCATG | 237
CGTAGGGCAATTTTTAGCGTGATGGATAAGGGCGCA | 86.1
